Assay results gathered from unrelated publications.
Protocols differ between the studies behind these lines. Values joined by “and” are separate records of one study, mostly repeats; a detail may differ. ± marks the error that the study gave.
PTPN1: Tyrosine-protein phosphatase non-receptor type 1 (PTPN1, Homo sapiens, UniProt P18031)
OGA: Protein O-GlcNAcase (OGA, Homo sapiens, UniProt O60502)

Chains of the proteins cited; added tags and fusions are not shown. Residues count along the entry.
UniProt P18031, 1-321 limits assumed: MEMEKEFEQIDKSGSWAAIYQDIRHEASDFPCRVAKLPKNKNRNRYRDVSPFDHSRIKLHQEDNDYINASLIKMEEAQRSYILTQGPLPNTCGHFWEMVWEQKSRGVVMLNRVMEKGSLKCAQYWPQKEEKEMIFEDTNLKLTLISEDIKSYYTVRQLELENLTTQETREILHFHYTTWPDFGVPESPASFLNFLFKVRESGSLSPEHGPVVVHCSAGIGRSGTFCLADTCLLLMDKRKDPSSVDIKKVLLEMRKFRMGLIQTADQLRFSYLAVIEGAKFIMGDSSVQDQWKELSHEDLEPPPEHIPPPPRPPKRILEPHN
UniProt O60502, whole entry: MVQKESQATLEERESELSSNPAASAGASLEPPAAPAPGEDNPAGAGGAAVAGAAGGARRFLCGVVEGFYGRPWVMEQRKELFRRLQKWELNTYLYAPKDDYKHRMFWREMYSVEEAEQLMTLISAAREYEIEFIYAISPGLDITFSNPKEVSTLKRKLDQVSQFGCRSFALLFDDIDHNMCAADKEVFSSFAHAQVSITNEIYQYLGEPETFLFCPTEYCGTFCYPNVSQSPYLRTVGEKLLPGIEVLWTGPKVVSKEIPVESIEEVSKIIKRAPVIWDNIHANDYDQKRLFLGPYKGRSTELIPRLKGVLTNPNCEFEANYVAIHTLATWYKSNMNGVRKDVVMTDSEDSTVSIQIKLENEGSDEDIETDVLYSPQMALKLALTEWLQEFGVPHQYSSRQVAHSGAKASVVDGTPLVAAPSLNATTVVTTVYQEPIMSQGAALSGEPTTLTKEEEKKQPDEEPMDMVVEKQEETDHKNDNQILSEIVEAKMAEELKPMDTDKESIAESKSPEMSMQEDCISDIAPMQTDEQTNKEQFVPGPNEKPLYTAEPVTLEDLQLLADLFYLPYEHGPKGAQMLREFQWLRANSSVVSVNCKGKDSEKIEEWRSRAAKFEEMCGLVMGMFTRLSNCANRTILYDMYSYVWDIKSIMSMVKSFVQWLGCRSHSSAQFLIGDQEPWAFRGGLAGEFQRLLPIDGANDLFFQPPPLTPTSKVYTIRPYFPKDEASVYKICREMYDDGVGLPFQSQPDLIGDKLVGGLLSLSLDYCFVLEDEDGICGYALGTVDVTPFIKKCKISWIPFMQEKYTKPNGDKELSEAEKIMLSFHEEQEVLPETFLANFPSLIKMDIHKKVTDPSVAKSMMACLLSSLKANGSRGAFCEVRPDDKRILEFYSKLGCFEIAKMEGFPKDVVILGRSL
UniProt O60704, 25-377 limits assumed: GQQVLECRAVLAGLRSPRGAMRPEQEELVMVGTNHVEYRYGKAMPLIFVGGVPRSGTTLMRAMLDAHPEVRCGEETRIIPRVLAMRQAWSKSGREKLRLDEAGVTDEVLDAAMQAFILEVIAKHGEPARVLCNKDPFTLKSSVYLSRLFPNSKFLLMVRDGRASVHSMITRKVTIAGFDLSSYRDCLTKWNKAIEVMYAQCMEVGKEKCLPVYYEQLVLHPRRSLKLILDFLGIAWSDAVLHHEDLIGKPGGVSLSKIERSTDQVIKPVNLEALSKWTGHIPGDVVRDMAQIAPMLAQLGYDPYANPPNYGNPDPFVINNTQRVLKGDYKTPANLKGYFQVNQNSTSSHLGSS
UniProt Q5JRX3, 29-1037 limits assumed: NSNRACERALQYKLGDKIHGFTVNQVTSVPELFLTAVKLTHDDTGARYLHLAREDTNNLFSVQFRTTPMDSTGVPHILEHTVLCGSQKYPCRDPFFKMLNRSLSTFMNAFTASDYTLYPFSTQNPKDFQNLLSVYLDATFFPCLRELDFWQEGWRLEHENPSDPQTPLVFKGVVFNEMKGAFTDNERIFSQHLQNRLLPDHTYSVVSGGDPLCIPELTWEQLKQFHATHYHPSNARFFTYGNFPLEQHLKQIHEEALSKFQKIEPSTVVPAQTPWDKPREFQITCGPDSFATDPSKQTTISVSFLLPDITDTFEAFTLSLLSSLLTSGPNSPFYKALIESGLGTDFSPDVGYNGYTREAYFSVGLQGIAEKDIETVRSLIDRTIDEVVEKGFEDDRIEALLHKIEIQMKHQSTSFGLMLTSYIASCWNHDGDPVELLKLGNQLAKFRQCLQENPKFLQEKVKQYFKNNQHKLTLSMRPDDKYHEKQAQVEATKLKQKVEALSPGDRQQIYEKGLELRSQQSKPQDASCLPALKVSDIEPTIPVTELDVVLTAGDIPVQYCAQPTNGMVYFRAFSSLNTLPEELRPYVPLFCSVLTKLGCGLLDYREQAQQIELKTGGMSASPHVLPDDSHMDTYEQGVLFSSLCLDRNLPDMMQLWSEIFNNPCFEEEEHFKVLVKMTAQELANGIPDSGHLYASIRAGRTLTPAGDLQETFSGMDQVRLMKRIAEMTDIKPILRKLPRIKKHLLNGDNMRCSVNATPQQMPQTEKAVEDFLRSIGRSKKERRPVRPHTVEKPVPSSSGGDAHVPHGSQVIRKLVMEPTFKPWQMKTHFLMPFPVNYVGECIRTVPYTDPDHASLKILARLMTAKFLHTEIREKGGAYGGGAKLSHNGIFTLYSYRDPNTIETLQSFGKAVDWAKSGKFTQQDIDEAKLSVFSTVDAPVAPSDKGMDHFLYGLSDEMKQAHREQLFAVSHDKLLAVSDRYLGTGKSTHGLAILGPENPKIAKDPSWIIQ
UniProt P0C7A3, whole entry: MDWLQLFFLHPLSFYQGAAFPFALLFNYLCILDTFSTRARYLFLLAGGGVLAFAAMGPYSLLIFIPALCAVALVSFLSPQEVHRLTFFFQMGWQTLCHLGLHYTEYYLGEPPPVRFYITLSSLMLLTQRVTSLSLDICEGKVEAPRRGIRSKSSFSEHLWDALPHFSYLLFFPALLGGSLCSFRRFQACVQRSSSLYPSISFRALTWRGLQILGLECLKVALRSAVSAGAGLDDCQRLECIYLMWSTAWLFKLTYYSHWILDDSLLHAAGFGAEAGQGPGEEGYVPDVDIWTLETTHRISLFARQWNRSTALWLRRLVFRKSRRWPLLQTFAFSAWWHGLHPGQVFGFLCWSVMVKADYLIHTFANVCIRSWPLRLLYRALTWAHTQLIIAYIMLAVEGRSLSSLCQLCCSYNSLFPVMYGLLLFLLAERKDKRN
UniProt O15379, whole entry: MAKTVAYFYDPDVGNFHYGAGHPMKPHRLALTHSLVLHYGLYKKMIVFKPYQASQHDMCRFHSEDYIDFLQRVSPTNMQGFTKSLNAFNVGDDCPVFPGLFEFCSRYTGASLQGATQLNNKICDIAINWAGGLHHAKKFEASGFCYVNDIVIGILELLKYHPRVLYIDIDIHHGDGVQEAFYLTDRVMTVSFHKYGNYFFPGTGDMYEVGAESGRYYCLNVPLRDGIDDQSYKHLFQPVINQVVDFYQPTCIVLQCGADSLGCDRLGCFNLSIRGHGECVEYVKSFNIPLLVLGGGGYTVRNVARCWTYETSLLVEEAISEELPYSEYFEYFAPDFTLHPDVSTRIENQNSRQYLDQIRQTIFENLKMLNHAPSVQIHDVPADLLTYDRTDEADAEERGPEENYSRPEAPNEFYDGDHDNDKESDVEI
UniProt P04415, whole entry: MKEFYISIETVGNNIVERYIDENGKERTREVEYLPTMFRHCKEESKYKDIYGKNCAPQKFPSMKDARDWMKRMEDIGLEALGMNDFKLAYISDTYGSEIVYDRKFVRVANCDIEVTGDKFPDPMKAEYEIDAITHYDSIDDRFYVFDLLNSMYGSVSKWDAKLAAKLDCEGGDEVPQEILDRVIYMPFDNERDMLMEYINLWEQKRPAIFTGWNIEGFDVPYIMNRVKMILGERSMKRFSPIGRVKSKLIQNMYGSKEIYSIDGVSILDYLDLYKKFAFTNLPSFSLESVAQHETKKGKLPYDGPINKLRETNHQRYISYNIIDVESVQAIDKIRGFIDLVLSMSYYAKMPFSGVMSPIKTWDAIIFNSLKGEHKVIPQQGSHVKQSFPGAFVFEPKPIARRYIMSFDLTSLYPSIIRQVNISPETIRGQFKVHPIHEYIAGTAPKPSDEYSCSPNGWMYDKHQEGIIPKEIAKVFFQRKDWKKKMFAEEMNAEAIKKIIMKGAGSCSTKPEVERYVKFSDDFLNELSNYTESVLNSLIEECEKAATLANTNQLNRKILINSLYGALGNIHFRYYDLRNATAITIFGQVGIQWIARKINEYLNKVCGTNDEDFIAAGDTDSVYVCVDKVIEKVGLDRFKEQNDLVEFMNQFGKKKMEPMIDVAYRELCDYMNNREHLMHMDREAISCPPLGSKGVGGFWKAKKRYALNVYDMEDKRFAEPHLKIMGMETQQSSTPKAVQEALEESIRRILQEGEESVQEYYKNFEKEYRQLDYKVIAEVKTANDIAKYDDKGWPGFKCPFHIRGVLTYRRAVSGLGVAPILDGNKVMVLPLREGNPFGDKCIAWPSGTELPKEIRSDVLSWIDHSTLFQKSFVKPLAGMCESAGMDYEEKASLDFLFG
UniProt Q16539, whole entry: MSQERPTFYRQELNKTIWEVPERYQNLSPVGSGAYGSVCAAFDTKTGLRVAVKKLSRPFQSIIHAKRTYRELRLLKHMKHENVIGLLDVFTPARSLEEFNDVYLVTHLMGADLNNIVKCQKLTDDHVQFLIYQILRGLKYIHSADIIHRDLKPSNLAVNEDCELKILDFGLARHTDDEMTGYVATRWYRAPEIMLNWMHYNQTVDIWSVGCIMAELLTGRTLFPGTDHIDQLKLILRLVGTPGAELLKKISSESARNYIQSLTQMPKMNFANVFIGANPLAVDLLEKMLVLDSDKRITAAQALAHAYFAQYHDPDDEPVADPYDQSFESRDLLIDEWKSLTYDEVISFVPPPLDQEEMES
UniProt Q66478, 863-1012 limits assumed: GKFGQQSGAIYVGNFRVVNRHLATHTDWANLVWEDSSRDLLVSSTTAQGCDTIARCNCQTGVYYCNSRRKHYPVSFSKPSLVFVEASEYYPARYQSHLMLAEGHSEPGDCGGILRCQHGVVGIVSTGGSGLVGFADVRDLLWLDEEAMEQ

SMILES | tested on | assay | test system | conditions | scale | endpoint | value
CC(=O)N[C@@H](C)C(=O)N[C@@H](C)C(=O)N[C@@H](Cc1ccc(OP(=O)(O)O)cc1)C(=O)N[C@@H](CC(=O)O)C(=O)N[C@@H](CC(C)C)C(=O)N[C@@H](CC(=O)O)C(=O)N[C@@H](CCC(=O)O)C(=O)N[C@@H](Cc1ccc(O)cc1)C(N)=O | PTPN1 | substrate | – | pH 7.4, catalytic domain | – | Km | 1.9 ± 0.3 µM
CC(=O)N[C@@H](C)C(=O)N[C@@H](C)C(=O)N[C@@H](C)C(=O)N[C@@H](C)C(=O)N[C@@H](C)C(=O)N[C@@H](Cc1ccc(OP(=O)(O)O)cc1)C(=O)N[C@@H](CCCNC(=N)N)C(=O)N[C@@H](Cc1c[nH]cn1)C(=O)N[C@@H](CCCNC(=N)N)C(=O)N[C@@H](CCCNC(=N)N)C(N)=O | PTPN1 | substrate, continuous UV | – | pH 7.4, multiply phosphorylated peptides apparent | – | Km | 234 ± 37 µM
CC[C@H](C)[C@H](NC(=O)[C@H](Cc1ccc(OP(=O)(O)O)cc1)NC(=O)[C@H](C)NC(=O)[C@H](C)NC(C)=O)C(=O)N[C@@H](CCCNC(=N)N)C(=O)N[C@@H](CCCCN)C(=O)N[C@@H](CCCNC(=N)N)C(=O)N[C@@H](C)C(N)=O | PTPN1 | substrate | – | pH 7.4, catalytic domain | – | Km | 89 ± 2 µM
N#Cc1c(-c2ccc(Cl)cc2Cl)n(-c2nc(-c3ccc(Cl)cc3)c3c(NC(=O)c4ccccc4)nnc-3[nH]2)[nH]c1=O | SR | SRB | – | 10 µM | – | cell growth | 25.7%
CC(=O)N[C@@H](C)C(=O)N[C@@H](C)C(=O)N[C@@H](Cc1ccc(OP(=O)(O)O)cc1)C(=O)N[C@@H](C)C(=O)N[C@@H](CC(=O)O)C(=O)N[C@@H](CC(=O)O)C(=O)N[C@@H](C)C(=O)N[C@@H](C)C(N)=O | PTPN1 | substrate | – | pH 7.4, catalytic domain | – | Km | 2.2 ± 0.1 µM
CC[C@H](C)[C@H](NC(=O)[C@H](CC(=O)O)NC(=O)[C@@H]1CCCN1C(=O)[C@H](Cc1ccc(O)cc1)NC(=O)[C@H](Cc1ccc(O)cc1)NC(=O)[C@H](Cc1ccc(OS(=O)(=O)O)cc1)NC(=O)[C@H](CC(=O)O)NC(=O)[C@@H](NC(=O)[C@@H](N)C(C)C)[C@@H](C)O)C(=O)O | Protein-tyrosine sulfotransferase 2 (Homo sapiens, UniProt O60704) | substrate, LC-MS initial velocity | – | pH 7.5, 30 °C, reaction 2, added: saturating PAPS | – | Km | 3.1 µM
CC(C)C[C@H](NC(=O)CNC(=O)CNC(=O)[C@H](Cc1ccc(O)cc1)NC(=O)c1ccccc1N)C(=O)N[C@@H](CCCNC(=N)N)C(=O)N[C@@H](CCCNC(=N)N)C(=O)NCC(=O)N[C@@H](CCC(N)=O)C(=O)NCCNc1ccc([N+](=O)[O-])cc1[N+](=O)[O-] | Presequence protease, mitochondrial (Homo sapiens, UniProt Q5JRX3) | substrate | – | pH 7.5 | – | Km | 0.5 µM
CC(C)C[C@H](NC(=O)[C@H](Cc1ccccc1)NC(=O)[C@H](CN)NC(=O)[C@H](CO)NC(=O)CN)C(=O)N[C@@H](CO)C(=O)N1CCC[C@H]1C(=O)N[C@@H](CCC(=O)O)C(=O)N[C@@H](Cc1c[nH]cn1)C(=O)N[C@@H](CCC(N)=O)C(=O)NCCCCCC(=O)N[C@@H](CCCCNC(=O)CCCC[C@@H]1SC[C@@H]2NC(=O)N[C@@H]21)C(=O)NCC(=O)O | Membrane-bound ghrelin O-acyltransferase MBOAT4 (Mus musculus, UniProt P0C7A3) | substrate | – | pH 7 | – | Km | 33.9 ± 9.6 µM
CC[C@H](C)[C@H](NC(=O)[C@@H]1CCCN1C(=O)[C@H](Cc1ccccc1)NC(=O)[C@H](Cc1ccc(OP(=O)(O)O)cc1)NC(=O)[C@H](C)NC(C)=O)C(=O)N[C@@H](Cc1c[nH]c2ccccc12)C(=O)N[C@@H](Cc1ccc(OP(=O)(O)O)cc1)C(=O)N[C@@H](C)C(=O)N[C@@H](C)C(N)=O | PTPN1 | substrate, continuous UV | – | pH 7.4, multiply phosphorylated peptides apparent | – | Km | 3.5 ± 0.4 µM
CC(=O)N[C@H]1[C@H](OC[C@H](NC(=O)[C@H](Cc2c[nH]cn2)NC(=O)[C@H](C)NC(=O)[C@@H](NC(=O)[C@H](CCC(N)=O)NC(C)=O)C(C)C)C(=O)NCC(=O)N[C@@H](C)C(=O)N[C@@H](CCCCN)C(=O)N[C@@H](C)C(=O)N[C@@H](CO)C(N)=O)O[C@H](CO)[C@@H](O)[C@@H]1O | OGA | substrate | – | pH 7.5, 37 °C, added: 4MU-GlcNAc 200 µM competition | – | Km | 528 ± 15 µM
CC[C@H](C)[C@H](NC(=O)[C@H](CCCNC(=N)N)NC(=O)[C@H](CCCNC(=N)N)NC(C)=O)C(=O)N[C@@H](CO)C(=O)N[C@H](C(=O)N[C@@H](Cc1ccc(OP(=O)(O)O)cc1)C(=O)N[C@@H](C)C(=O)N[C@@H](C)C(N)=O)[C@@H](C)O | PTPN1 | substrate, continuous UV | – | pH 7.4, multiply phosphorylated peptides apparent | – | Km | 90 ± 7 µM
CCOC(=O)c1c(-c2ccc(Cl)cc2Cl)n(-c2nc(-c3ccc(Cl)cc3)c3c(NC(=O)c4ccccc4)nnc-3[nH]2)[nH]c1=O | SW-620 | SRB | – | 10 µM | relative to: untreated | cell growth | 4.14%
CC(=O)N[C@H]1[C@H](OC[C@H](NC(=O)[C@H](Cc2ccc(O)cc2)NC(=O)[C@@H]2CCCN2C(=O)[C@@H](NC(=O)[C@H](CO)NC(C)=O)C(C)C)C(=O)N[C@@H](CO)C(=O)N[C@@H](C)C(=O)N[C@@H](CCC(N)=O)C(=O)N[C@@H](CO)C(N)=O)O[C@H](CO)[C@@H](O)[C@@H]1O | OGA | substrate | – | pH 7.5, 37 °C, added: 4MU-GlcNAc 200 µM competition | – | Km | 4800 ± 300 µM
CC(C)C[C@H](NC(=O)[C@@H](NC(=O)[C@H](CC(C)C)NC(=O)[C@H](CS)NC(=O)CNS(=O)(=O)c1cccc2c(N(C)C)cccc12)C(C)C)C(=O)O | geranylgeranyltransferase type-I (Rattus norvegicus, UniProt P53610+Q04631) | substrate, fluorescence | – | 30 °C, added: SmgGDS-607 5 µM, GTP 30 µM and GGPP 10 µM | – | Km | 2.5 ± 1.6 µM
CC(=O)N[C@@H](CCCNC(=N)N)C(=O)N[C@H](C(=O)N[C@@H](CC(C)C)C(=O)N[C@@H](C)C(=O)N[C@@H](C)C(=O)N[C@@H](Cc1ccc(OP(=O)(O)O)cc1)C(=O)N[C@@H](CCCNC(=N)N)C(=O)N[C@@H](Cc1ccccc1)C(=O)N[C@@H](CCC(N)=O)C(=O)N[C@@H](CCCCN)C(N)=O)[C@@H](C)O | PTPN1 | substrate, continuous UV | – | pH 7.4, multiply phosphorylated peptides apparent | – | Km | 165 ± 18 µM
C/C=C/C(=O)NCCCC[C@H](NC(=O)CNC(=O)[C@H](CC(C)C)NC(C)=O)C(=O)Nc1ccc2c(C)cc(=O)oc2c1 | Histone deacetylase 3/Nuclear receptor corepressor 2 (HDAC3/NCoR2) (Homo sapiens, UniProt O15379+Q9Y618) | substrate, fluorogenic trypsin-coupled | – | pH 7.4, 25 °C | – | Km | < 10 µM
CC(=O)N[C@@H](C)C(=O)N[C@@H](C)C(=O)N[C@@H](Cc1ccc(OP(=O)(O)O)cc1)C(=O)N[C@@H](CC(=O)O)C(=O)N[C@@H](CC(=O)O)C(=O)N[C@@H](C)C(=O)N[C@@H](C)C(=O)N[C@@H](C)C(N)=O | PTPN1 | substrate | – | pH 7.4, catalytic domain | – | Km | 6.5 ± 0.1 µM
CC(=O)N[C@@H](CC(=O)O)C(=O)N[C@H](C(=O)N[C@@H](C)C(=O)N[C@@H](CC(=O)O)C(=O)N[C@@H](C)C(=O)N[C@@H](Cc1ccc(OP(=O)(O)O)cc1)C(=O)N[C@@H](C)C(=O)N[C@@H](C)C(N)=O)[C@@H](C)O | PTPN1 | substrate, continuous UV | – | pH 7.4, multiply phosphorylated peptides apparent | – | Km | 35 ± 2 µM
C=C(C)C(=O)Nc1ccc(-c2c(-c3ccc(Oc4nccc(C)n4)c(F)c3)c3c(N)ncnc3n2C)cc1 | AN3 CA | cell growth, CellTiter-Glo | – | 120 h, unit not given | relative to: untreated growth rate, higher = stronger inhibition | area over GR curve | 0.991
CC(=O)N[C@@H](C)C(=O)N[C@@H](C)C(=O)N[C@@H](Cc1ccc(OP(=O)(O)O)cc1)C(=O)N[C@@H](Cc1c[nH]c2ccccc12)C(=O)N[C@@H](C)C(=O)N[C@@H](Cc1ccc(O)cc1)C(=O)N[C@@H](CC(=O)O)C(=O)N[C@@H](CC(=O)O)C(N)=O | PTPN1 | substrate | – | pH 7.4, catalytic domain | – | Km | 2.3 ± 0.4 µM
CC/C=C\C/C=C\CCC/C=C/C=C/C=C\CCCC(=O)O | DNA-directed DNA polymerase (Enterobacteria phage T4, UniProt P04415) | enzyme activity, inhibitor | – | – | – | IC50 | > 100 µM
CC(C)C[C@H](NC(=O)[C@H](C)NC(=O)[C@H](CCCNC(=N)N)NC(=O)[C@H](CCCNC(=N)N)NC(=O)[C@H](CCCNC(=N)N)NC(=O)[C@H](C)NC(=O)[C@H](CC(C)C)NC(=O)[C@H](CCCNC(=N)N)NC(=O)[C@H](CO)NC(=O)[C@H](CCCCN)NC(=O)[C@H](CO)NC(=O)Cn1cc(COC(=O)[C@]2(C)C=C(C(=O)OC(C)(C)C)C(=O)CC2)nn1)C(=O)O | Mitogen-activated protein kinase 14 (MAPK14, Homo sapiens, UniProt Q16539) | enzyme activity, inhibitor, D-SENSOR kinase | – | 66.67 µM, unit not given | relative to: untreated | remaining activity | 0.0129 and 0.00576 and 0.002
CC[C@H](C)[C@H](NC(=O)[C@H](CCCCN)NC(=O)[C@H](CC(=O)O)NC(=O)[C@H](CCCNC(=N)N)NC(=O)c1ccc(N=Nc2ccc(N(C)C)cc2)cc1)C(=O)N1CCC[C@H]1C(=O)N[C@@H](Cc1ccccc1)C(=O)N[C@@H](CCSC)C(=O)NCC(=O)N[C@@H](Cc1ccc(O)cc1)C(=O)N[C@@H](CCCNC(=N)N)C(=O)NCC(=O)N[C@@H](CCC(N)=O)C(=O)N[C@@H](CC(=O)O)C(=O)N[C@@H](CCC(=O)NCCNc1cccc2c(S(=O)(=O)O)cccc12)C(N)=O | Genome polyprotein, 2A protease (Enterovirus A71, UniProt Q66478) | protease activity, substrate, FRET | enterovirus 71 | pH 7.4, 30 °C | – | Km | 15.5 ± 2.48 µM

Excerpt of the above:
SMILES | tested on | assay | test system | conditions | scale | endpoint | value
CC(=O)N[C@@H](C)C(=O)N[C@@H](C)C(=O)N[C@@H](Cc1ccc(OP(=O)(O)O)cc1)C(=O)N[C@@H](CC(=O)O)C(=O)N[C@@H](CC(C)C)C(=O)N[C@@H](CC(=O)O)C(=O)N[C@@H](CCC(=O)O)C(=O)N[C@@H](Cc1ccc(O)cc1)C(N)=O | PTPN1 | substrate | – | pH 7.4, catalytic domain | – | Km | 1.9 ± 0.3 µM
CC(C)C[C@H](NC(=O)[C@H](Cc1ccccc1)NC(=O)[C@H](CN)NC(=O)[C@H](CO)NC(=O)CN)C(=O)N[C@@H](CO)C(=O)N1CCC[C@H]1C(=O)N[C@@H](CCC(=O)O)C(=O)N[C@@H](Cc1c[nH]cn1)C(=O)N[C@@H](CCC(N)=O)C(=O)NCCCCCC(=O)N[C@@H](CCCCNC(=O)CCCC[C@@H]1SC[C@@H]2NC(=O)N[C@@H]21)C(=O)NCC(=O)O | Membrane-bound ghrelin O-acyltransferase MBOAT4 (Mus musculus, UniProt P0C7A3) | substrate | – | pH 7 | – | Km | 33.9 ± 9.6 µM
CC(=O)N[C@@H](CC(=O)O)C(=O)N[C@H](C(=O)N[C@@H](C)C(=O)N[C@@H](CC(=O)O)C(=O)N[C@@H](C)C(=O)N[C@@H](Cc1ccc(OP(=O)(O)O)cc1)C(=O)N[C@@H](C)C(=O)N[C@@H](C)C(N)=O)[C@@H](C)O | PTPN1 | substrate, continuous UV | – | pH 7.4, multiply phosphorylated peptides apparent | – | Km | 35 ± 2 µM
